Literature values that unrelated publications cite.
Protocols differ between the studies behind these lines.

| Substance | tested on | assay | system | setting | measurement | value |
| --- | --- | --- | --- | --- | --- | --- |
| WEAWWTEY | HLA class I histocompatibility antigen, B alpha chain, allele B*18:01 (Homo sapiens, UniProt P01889) | peptide-MHC binding | peptide |  | IC50 | 2.04 nM |
| COc1cc2c(Nc3ccc(Cl)c(Cl)c3F)ncnc2cc1OC[C@@H]1C[C@@H]2CN(C)C[C@@H]2C1 |  |  | mouse | oral, dosed 1-5 days per week | MTD | 70 mg/kg |
| SMKTRTAWF | HLA class I histocompatibility antigen, B alpha chain, allele B*08:02 (Homo sapiens, UniProt P01889) | peptide-MHC binding | peptide |  | IC50 | 30 nM |
| CCNC/C=C\CNCCCCNCCCCNC/C=C\CNCC | human prostate cancer cells |  |  |  | IC50 | 140 to 500 nM |
| FPSQQPYL | HLA class I histocompatibility antigen, B alpha chain, allele B*51:01 (Homo sapiens, UniProt P01889) | peptide-MHC binding | peptide |  | IC50 | 3.53 nM |
| CC(C)=CCN1Cc2cc(Cl)cc3[nH]c(=S)n(c23)C[C@@H]1C | HIV-1 | viral replication | CEM |  | IC50 | 150 nM |
| FHLRSRFAF | HLA class I histocompatibility antigen, B alpha chain, allele B*39:01 (Homo sapiens, UniProt P01889) | peptide-MHC binding | peptide |  | IC50 | 1 nM |
| CCOC(=O)C1=C[C@@H](OC(CC)CC)[C@H](NC(C)=O)[C@@H](N)C1 |  |  | human, urine | dose not given | unchanged drug excreted in urine | < 5% |

Repeated from above:
| Substance | tested on | assay | system | setting | measurement | value |
| --- | --- | --- | --- | --- | --- | --- |
| CCOC(=O)C1=C[C@@H](OC(CC)CC)[C@H](NC(C)=O)[C@@H](N)C1 |  |  | human, urine | dose not given | unchanged drug excreted in urine | < 5% |
